Measured values from different studies.
Compare with care: the assays were run in different laboratories. Numbers after ± are the reported error.

Structure (SMILES)	assay	test system	conditions	terminal half-life [h]
Cc1cc(-c2nccc3c2ccn3CC(=O)Nc2ccc(-c3cnccn3)cn2)ccn1		human, plasma	oral, 40 mg single dose, geometric mean	11.4
Cn1cc(-c2ccc(S(=O)(=O)[C@@H]3C[C@@H](C(=O)NC4(C#N)CC4)N(C(=O)C4(C(F)(F)F)CC4)C3)c(C(F)(F)F)c2)cn1	noncompartmental	human, both sexes, plasma	oral, 100 mg once daily, day 1, with food, single dose	8.44
Cc1cc(Nc2ccc(S(F)(F)(F)(F)F)cc2)n2nc(C(C)(F)F)nc2n1	LC-MS/MS	human vivax malaria patients, plasma	oral, 600 mg, mean	91.3
CN(CC#N)C(=O)C[C@H](Nc1nc2ccccc2[nH]1)c1cccc(C(F)(F)F)c1		human	intravenous infusion, 4 mg/kg, 1 mg/mL formulation	3.99 ± 0.95
C[C@@]1(c2cc(NC(=O)c3ccc(C#N)cn3)ccc2F)C=CSC(N)=N1		elderly humans, both sexes, plasma	oral, 10 mg single dose, mean	14.4
Cc1nc2ccc(F)cc2n1-c1nc(N)c(F)c(Nc2ccc(C(F)(F)F)cc2)n1		human patients, plasma	200 to 400 mg, monophasic decline	~9.5
COc1nnc2ccc(N3CCC(c4ccc(OCCN5CCN(C)C(=O)[C@H]5C)cc4)CC3)nn12		human, plasma	oral, 30 mg once daily, single dose, monotherapy	2.64
Cc1ccc(C(=O)N(CCCN)C(c2nc3snc(C)c3c(=O)n2Cc2ccccc2)C(C)C)cc1 (stereo not shown)		human	intravenous, all doses pooled, course day 3 following induction, arithmetic mean	17.1
Cc1[nH]c(/C=C2\C(=O)Nc3ccc(F)cc32)c(C)c1C(=O)N[C@H]1CCN(C(=O)N(C)C)C1		human patients, plasma	oral, 200 mg single dose, added: everolimus 5 mg	12.9 ± 7.5
C[C@@H](c1ccc2nccn2c1)n1nnc2ncc(-c3cnn(C)c3)nc21		human, plasma	oral, 300 mg, cycle 1 day 1, single dose	3.14
C#C[C@]1(O)CC[C@H]2[C@@H]3CCc4cc(O)ccc4[C@H]3CC[C@@]21C		human female	single dose oral contraceptive, cpd alone	19 ± 3
CN(C)CCCNC(=O)/C(=C/CCCCC(=O)NO)COc1cccc2ccccc12		human	intravenous, 312.5 mg/m^2, single dose, day one	6.58
Cc1cc(-c2nnc(N)nc2-c2ccc(F)cc2)cc(Cl)n1		human patients, plasma	oral, 100 mg nanosuspension once daily, multiple doses, arithmetic mean	7.8
COC(=O)c1ccc2c(c1)NC(=O)/C2=C(\Nc1ccc(N(C)C(=O)CN2CCN(C)CC2)cc1)c1ccccc1		healthy human	oral, 150 mg single, alone	13.1
CN1C(=O)[C@@H](NC(=O)c2nnc(Cc3ccccc3)[nH]2)COc2cccnc21		human, plasma	oral, 200 mg once daily, day 14, geometric mean	6.61
CC(=O)N(C)[C@H]1CCN(C(=O)c2cnc3c(c2)C[C@](C)(c2ccc(F)cc2)N3)C1		human, male, plasma	oral, dose not given, single and multiple doses	~24
